# Assay results pooled from the literature.
# Compare with care: the assays were run in different laboratories. ± gives the spread as reported.
# 4'-phosphopantetheinyl transferase PptT: 4'-phosphopantetheinyl transferase PptT (Mycobacterium tuberculosis, UniProt O33336)
# Sequence of UniProt O33336 (whole entry, looked up): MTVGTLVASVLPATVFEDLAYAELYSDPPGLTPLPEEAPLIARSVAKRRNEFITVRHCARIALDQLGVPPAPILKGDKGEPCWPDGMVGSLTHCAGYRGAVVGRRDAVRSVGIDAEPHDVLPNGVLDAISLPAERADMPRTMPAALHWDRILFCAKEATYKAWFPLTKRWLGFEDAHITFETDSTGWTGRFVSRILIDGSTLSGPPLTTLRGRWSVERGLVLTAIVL
# Matrix protein 2: Matrix protein 2 (Influenza A virus, UniProt P0DOF5)
# Sequence of UniProt P0DOF5 (whole entry, looked up): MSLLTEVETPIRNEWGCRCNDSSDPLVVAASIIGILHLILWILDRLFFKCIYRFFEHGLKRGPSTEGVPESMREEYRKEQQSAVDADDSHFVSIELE
# Sequence of UniProt P21554 (whole entry, unmodified, looked up): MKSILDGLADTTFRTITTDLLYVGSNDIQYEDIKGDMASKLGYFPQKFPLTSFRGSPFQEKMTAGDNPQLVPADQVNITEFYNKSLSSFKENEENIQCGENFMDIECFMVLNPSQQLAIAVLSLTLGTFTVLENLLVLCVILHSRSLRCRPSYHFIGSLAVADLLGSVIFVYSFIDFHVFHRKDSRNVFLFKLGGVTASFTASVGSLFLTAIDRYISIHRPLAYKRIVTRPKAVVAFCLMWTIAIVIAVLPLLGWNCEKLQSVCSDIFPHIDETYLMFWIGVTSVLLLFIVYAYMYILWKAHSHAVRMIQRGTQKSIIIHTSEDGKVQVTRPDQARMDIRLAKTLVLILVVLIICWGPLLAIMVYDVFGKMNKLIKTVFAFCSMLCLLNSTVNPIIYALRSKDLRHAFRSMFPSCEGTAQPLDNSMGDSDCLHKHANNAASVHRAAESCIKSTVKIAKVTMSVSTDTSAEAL
# Sequence of UniProt P34972 (whole entry, unmodified, looked up): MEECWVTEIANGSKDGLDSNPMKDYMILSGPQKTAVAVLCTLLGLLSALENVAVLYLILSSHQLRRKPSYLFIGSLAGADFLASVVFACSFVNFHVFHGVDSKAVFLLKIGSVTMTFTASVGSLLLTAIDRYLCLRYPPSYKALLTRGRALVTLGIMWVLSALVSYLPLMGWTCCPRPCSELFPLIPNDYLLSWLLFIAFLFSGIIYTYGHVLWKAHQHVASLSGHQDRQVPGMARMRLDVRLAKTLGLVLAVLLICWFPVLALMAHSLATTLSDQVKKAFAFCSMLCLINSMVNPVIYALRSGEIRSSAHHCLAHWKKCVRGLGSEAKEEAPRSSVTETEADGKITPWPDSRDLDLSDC
# Sequence of UniProt P9WPA5 (whole entry, looked up): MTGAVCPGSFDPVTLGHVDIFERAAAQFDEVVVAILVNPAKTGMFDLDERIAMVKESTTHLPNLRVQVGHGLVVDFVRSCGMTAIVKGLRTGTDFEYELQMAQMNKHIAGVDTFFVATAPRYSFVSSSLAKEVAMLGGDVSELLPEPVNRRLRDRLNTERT
# Sequence of UniProt P35503 (whole entry, looked up): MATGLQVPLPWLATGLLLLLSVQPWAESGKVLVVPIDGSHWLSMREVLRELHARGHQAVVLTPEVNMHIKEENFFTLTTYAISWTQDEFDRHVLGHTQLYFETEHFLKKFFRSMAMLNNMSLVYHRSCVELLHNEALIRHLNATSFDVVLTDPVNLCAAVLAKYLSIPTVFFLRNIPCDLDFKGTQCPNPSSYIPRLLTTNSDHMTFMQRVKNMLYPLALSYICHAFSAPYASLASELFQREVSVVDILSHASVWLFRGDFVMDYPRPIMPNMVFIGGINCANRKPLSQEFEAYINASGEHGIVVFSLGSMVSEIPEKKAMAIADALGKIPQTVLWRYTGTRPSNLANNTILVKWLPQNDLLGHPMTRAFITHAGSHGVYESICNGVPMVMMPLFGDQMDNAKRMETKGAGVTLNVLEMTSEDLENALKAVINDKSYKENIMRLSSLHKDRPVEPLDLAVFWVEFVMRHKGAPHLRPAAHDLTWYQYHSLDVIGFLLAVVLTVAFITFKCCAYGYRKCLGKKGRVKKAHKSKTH
# Sequence of UniProt P9WIA1 (whole entry, looked up): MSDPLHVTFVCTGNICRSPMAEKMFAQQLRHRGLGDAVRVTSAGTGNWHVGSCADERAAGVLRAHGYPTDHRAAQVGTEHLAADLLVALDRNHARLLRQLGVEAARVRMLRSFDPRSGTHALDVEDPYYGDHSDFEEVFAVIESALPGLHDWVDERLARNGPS
# Sequence of UniProt P09622 (whole entry, looked up): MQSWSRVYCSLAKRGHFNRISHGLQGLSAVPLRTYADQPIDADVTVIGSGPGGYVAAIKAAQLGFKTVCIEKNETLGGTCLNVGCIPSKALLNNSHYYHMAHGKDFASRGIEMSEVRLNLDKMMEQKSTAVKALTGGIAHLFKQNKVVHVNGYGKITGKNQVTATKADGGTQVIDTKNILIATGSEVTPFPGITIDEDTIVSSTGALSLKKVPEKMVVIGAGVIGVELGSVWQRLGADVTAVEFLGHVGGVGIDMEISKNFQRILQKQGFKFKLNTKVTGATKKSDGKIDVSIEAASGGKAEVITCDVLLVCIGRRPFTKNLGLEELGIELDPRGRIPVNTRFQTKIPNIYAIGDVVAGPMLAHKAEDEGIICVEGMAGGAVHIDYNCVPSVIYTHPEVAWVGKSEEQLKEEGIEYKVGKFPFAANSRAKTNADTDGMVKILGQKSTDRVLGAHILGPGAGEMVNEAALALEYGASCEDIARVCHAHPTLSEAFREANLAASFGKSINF
# Sequence of UniProt P25084 (whole entry, looked up): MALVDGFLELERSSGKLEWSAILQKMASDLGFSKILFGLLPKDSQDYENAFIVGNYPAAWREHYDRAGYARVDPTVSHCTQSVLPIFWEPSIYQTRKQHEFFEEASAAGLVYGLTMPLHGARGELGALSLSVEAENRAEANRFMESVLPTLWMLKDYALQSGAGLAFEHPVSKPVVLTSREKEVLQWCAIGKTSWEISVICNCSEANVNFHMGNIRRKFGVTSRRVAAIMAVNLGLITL
Compound,tested on,assay,system,conditions,how to read,endpoint,result
Cc1nc(=O)c2cc(CN(C)c3ccc(C(=O)NCCCC(=O)O)s3)ccc2[nH]1,4'-phosphopantetheinyl transferase PptT,"enzyme activity, inhibitor, fluorescence polarization",,,,Hill slope,1.5
CCCC[C@H](NC(=O)CNC(=O)CNC(=O)c1ccc(NN)nc1)C(=O)N[C@H]1CC(=O)NCCCC[C@@H](C(N)=O)NC(=O)[C@H](Cc2c[nH]c3ccccc23)NC(=O)[C@H](CCCNC(=N)N)NC(=O)[C@@H](Cc2ccccc2)NC(=O)[C@H](Cc2c[nH]cn2)NC1=O [technetium-99m labelled],,,"C57 mouse, B16/F1 melanoma, tumor","2 h, with: L-lysine 12 mg",,uptake,14.1 ± 2.9 %ID/g
"CCOC(=O)C1C(OC(c2ccc(Cl)cc2)c2ccc(Cl)cc2)CC2CCC1N2C (single isomer, unassigned)",rat 5-HT1 receptors,"binding, radioligand displacement",,"inactive if below 75% at 10000 nM, with: [3H]5-HT",,Ki,inactive
Cc1nc(=O)c2cc(CN(C)c3ccc(C(=O)Nc4n[nH]c5ccccc45)s3)ccc2[nH]1,4'-phosphopantetheinyl transferase PptT,"enzyme activity, inhibitor, fluorescence polarization",,,,Hill slope,1
N=C(N)NCCC[C@@H]1NC(=O)[C@H](CCCCNC(=O)CCOCCOCCOCCOCCNC(=O)CC[C@H](NC(=O)CCOCCOCCOCCOCCNC(=O)CC[C@H](NC(=O)CN2CCN(CC(=O)O)CCN(CC(=O)O)CCN(CC(=O)O)CC2)C(=O)NCCOCCOCCOCCOCCC(=O)N[C@@H](CCC(=O)NCCOCCOCCOCCOCCC(=O)NCCCC[C@@H]2NC(=O)[C@@H](Cc3ccccc3)NC(=O)[C@H](CC(=O)O)NC(=O)CNC(=O)[C@H](CCCNC(=N)N)NC2=O)C(=O)NCCOCCOCCOCCOCCC(=O)NCCCC[C@@H]2NC(=O)[C@@H](Cc3ccccc3)NC(=O)[C@H](CC(=O)O)NC(=O)CNC(=O)[C@H](CCCNC(=N)N)NC2=O)C(=O)NCCOCCOCCOCCOCCC(=O)NCCCC[C@@H]2NC(=O)[C@@H](Cc3ccccc3)NC(=O)[C@H](CC(=O)O)NC(=O)CNC(=O)[C@H](CCCNC(=N)N)NC2=O)NC(=O)[C@@H](Cc2ccccc2)NC(=O)[C@H](CC(=O)O)NC(=O)CNC1=O [indium-111 labelled],,,"female athymic nude mice, heart","intravenous, 3 µCi, 24 h, U-87 MG glioma xenograft",,tissue uptake,0.55 ± 0.06 %ID/g
Clc1ccc(CNC23CC4CC(CC(C4)C2)C3)s1,Matrix protein 2,"ion current, two-electrode voltage clamp",,100 µM,,inhibition,91%
Cc1nc(=O)c2cc(CN(C)c3ccc(C(=O)NCCc4nn[nH]n4)s3)ccc2[nH]1,4'-phosphopantetheinyl transferase PptT,"enzyme activity, inhibitor, fluorescence polarization",,,,Hill slope,1.2
CN(C)CC1CCCCC1(O)c1cccc(O)c1 (stereo not shown),human P-glycoprotein,,Caco-2 TC7 monolayer,"100 µM, 3 h, apical pH 6.8, basolateral pH 7.4, with: cyclosporine A 10 µM",,Papp B-to-A,206 ± 3 nm/s
COc1ccc(CNC(C)(C)C23CC4CC(CC(C4)C2)C3)c(O)c1,Matrix protein 2,binding,,,,kon,332.6 ± 1.7 M⁻¹ s⁻¹
Cc1nc(=O)c2cc(CN(C)c3ccc(C(=O)N[C@H](CCC(=O)O)c4nnn[nH]4)s3)ccc2[nH]1,4'-phosphopantetheinyl transferase PptT,"enzyme activity, inhibitor, fluorescence polarization",,,,Hill slope,2.4
COc1ccc(CNc2ccc(C34CC5CC(CC(C5)C3)C4)cc2)c(O)c1,Matrix protein 2,binding,,,,kon,381.7 ± 1.4 M⁻¹ s⁻¹
CCOC(=O)CC[C@H](NC(=O)c1ccc(N(C)Cc2ccc3[nH]c(C)nc(=O)c3c2)s1)C(=O)OCC,4'-phosphopantetheinyl transferase PptT,"enzyme activity, inhibitor, fluorescence polarization",,,,Hill slope,0.7
CCCCCn1cc(C(=O)c2ccc3ccccc3c2)c2ccccc21,"CNR2 (Homo sapiens, UniProt P34972)","β-arrestin recruitment, agonist, BRET",HEK-293T,,,Emax,91.8%
Cc1cc(S(=O)(=O)N(C)CC(=O)Nc2ccn(C)c(=O)c2)c2[nH]ncc2c1,"DLD (Homo sapiens, UniProt P09622)",SPR,,,reference: human over M. tuberculosis Lpd,dissociation rate ratio,10 fold
CC/C=C\C/C=C\C/C=C\C/C=C\C/C=C\C/C=C\CCC(=O)Nc1ccn(C2OC(CO)C(O)C2(F)F)c(=O)n1 (stereo not shown),OVCAR-5,NCI60 screen,,,,CC50,63.8 µM
N=C(N)NCCC[C@@H]1NC(=O)[C@H](CCCCNC(=O)CC[C@H](NC(=O)CCOCCOCCOCCOCCNC(=O)CC[C@H](NC(=O)CN2CCN(CC(=O)O)CCN(CC(=O)O)CCN(CC(=O)O)CC2)C(=O)NCCOCCOCCOCCOCCC(=O)N[C@@H](CCC(=O)NCCCC[C@@H]2NC(=O)[C@@H](Cc3ccccc3)NC(=O)[C@H](CC(=O)O)NC(=O)CNC(=O)[C@H](CCCNC(=N)N)NC2=O)C(=O)NCCCC[C@@H]2NC(=O)[C@@H](Cc3ccccc3)NC(=O)[C@H](CC(=O)O)NC(=O)CNC(=O)[C@H](CCCNC(=N)N)NC2=O)C(=O)NCCCC[C@@H]2NC(=O)[C@@H](Cc3ccccc3)NC(=O)[C@H](CC(=O)O)NC(=O)CNC(=O)[C@H](CCCNC(=N)N)NC2=O)NC(=O)[C@@H](Cc2ccccc2)NC(=O)[C@H](CC(=O)O)NC(=O)CNC1=O [indium-111 labelled],,,"athymic nude mice, female, U-87 MG glioma xenograft, tumour and lungs","intravenous, 4 h",reference: tumour over lungs,tumour to tissue ratio,4.4 ± 2.74
O=C(O)CCc1c[nH]c2ccccc12,"Phosphopantetheine adenylyltransferase (coaD, Mycobacterium tuberculosis, UniProt P9WPA5)",competition ITC,,,,ligand efficiency,0.29
O=S(=O)(O)CCOCC1CSSCC(COCCS(=O)(=O)O)SS1 (stereo not shown),"Response regulator PhoP (Mycobacterium tuberculosis, UniProt P71814)","binding, LSPR",,,,kon,5300 ± 510 M⁻¹ s⁻¹
Cc1nc(=O)c2cc(CN(C)c3cccc(C(=O)N[C@@H](CCC(=O)O)C(=O)O)c3)ccc2[nH]1,4'-phosphopantetheinyl transferase PptT,"enzyme activity, inhibitor, fluorescence polarization",,,,Hill slope,1.4
CC[C@H](C)C(=O)N1CCC(NC(=O)Nc2ccc(OC(F)(F)F)c(F)c2)CC1,,,"healthy volunteers, both sexes","oral, 8 mg, fed state",,subjects with treatment-emergent headache,7.1%
"CCCCCc1cc(O)c2c(c1)OC(C)(C)C1CCC(C)=CC21 (single isomer, unassigned; (-))","UGT1A3 (Homo sapiens, UniProt P35503)",chenodeoxycholic acid glucuronidation,recombinant microsomes,"10 or 100 µM, with: chenodeoxycholic acid",,inhibition,no inhibition
CC(C)C[C@H](NC(=O)[C@H](Cc1ccccc1)NC(=O)CNC(=O)CNC(=O)[C@@H](N)Cc1ccc(O)cc1)C(=O)O,rat locus coeruleus neurons,"K+ current, agonist",,concentration not given,,outward current amplitude,199 ± 23 pA
CN[C@](C)(C[18F])C(=O)O,SK-OV-3 tumour model,,"host not given, liver","15 min, tumour-bearing",,tracer uptake,4.2 %ID/g
COc1ccc(CNc2nc(N3CCC[C@H]3CO)ncc2C(=O)NN)cc1Cl,Salmonella typhimurium,,TA98,"250 µg/plate, 48 h, with: rat liver S9",,revertant count,42 ± 3
CCCC/C=C/C(=O)N[C@@H](Cc1cc(F)cc(F)c1)C(=O)N[C@@H](COC(=O)[C@@H]1CCCN1C(C)=O)C(=O)OC,ClpX Mycobacterium tuberculosis,,,"200 µM, DMSO 20%, with: 2 µM ClpP1P2",,ATPase activity,~45%
N[C@@H](CCC(=O)N[C@@H](CS[Se]Cc1ccc(C(=O)Nc2cc(C(F)(F)F)c(Br)c(C(F)(F)F)c2)cc1)C(=O)NCC(=O)O)C(=O)O,"Low molecular weight protein-tyrosine phosphatase A (Mycobacterium tuberculosis, UniProt P9WIA1)",,,,,modified protein mass,18.7 kDa
Cc1nc(=O)c2cc(CN(C)c3cccc(C(=O)N[C@@]4(C(=O)O)CC[C@@H](C(=O)O)C4)c3)ccc2[nH]1,4'-phosphopantetheinyl transferase PptT,"enzyme activity, inhibitor, fluorescence polarization",,,,Hill slope,1.4
CCCCCn1cc(C(=O)c2ccc3c(c2)CC(C)(C)C3)c2ccccc21,"CNR1 (Homo sapiens, UniProt P21554)","Gαi1 engagement, agonist, BRET",HEK293T,,reference: reference agonist,Emax,55.1 ± 5.4%
COc1cc(C(=O)NCCOCCOCCOCCNC(=O)c2ccc([18F])nc2)ccc1NC(=O)C1NC(CC(C)(C)C)C(C#N)(c2ccc(Cl)cc2F)C1c1cccc(Cl)c1F (stereo not shown),SJSA-1 tumour model,,"host not given, stomach","1 h, tumour-bearing",,tracer uptake,0.75 %ID/g
CCCCCn1cc(C(=O)c2cccc3ccccc23)c2ccccc21,"CNR1 (Homo sapiens, UniProt P21554, I267L)","Gαi1 engagement, agonist, BRET",,,reference: reference agonist at wild-type CB1,Emax,75.4 ± 4.5%
Cc1nc(=O)c2cc(CN(C)c3ccc(C(=O)NCc4cccc(C(=O)O)c4)s3)ccc2[nH]1,4'-phosphopantetheinyl transferase PptT,"enzyme activity, inhibitor, fluorescence polarization",,,,Hill slope,1.1
CC(N)Cc1cccc(C(F)(F)F)c1 (stereo not shown),"Amyloid-beta precursor protein, amyloid-beta 1-40 oligomers (APP, Homo sapiens, UniProt P05067)","binding, STD NMR",,highest STD,,STD NMR signal,8.07%
CCCCCn1cc(C(=O)c2cccc3c2CC(C)(C)C3)c2ccccc21,"CNR2 (Homo sapiens, UniProt P34972, I110L)","Gαi1 engagement, agonist, BRET",,,reference: reference agonist at wild-type CB2,Emax,66.8 ± 6.9%
CCCCc1cn(-c2cccc(C(=O)N[C@H]3CCOC3=O)c2)nn1,"lasR (Pseudomonas aeruginosa, UniProt P25084)","reporter gene, agonist","Escherichia coli, DH5α pJN105L/pSC11",100 µM,reference: OdDHL at same concentration,activation,0%

# For quick reference, copied from above:
Compound,tested on,assay,system,conditions,how to read,endpoint,result
Cc1nc(=O)c2cc(CN(C)c3ccc(C(=O)Nc4n[nH]c5ccccc45)s3)ccc2[nH]1,4'-phosphopantetheinyl transferase PptT,"enzyme activity, inhibitor, fluorescence polarization",,,,Hill slope,1
N=C(N)NCCC[C@@H]1NC(=O)[C@H](CCCCNC(=O)CCOCCOCCOCCOCCNC(=O)CC[C@H](NC(=O)CCOCCOCCOCCOCCNC(=O)CC[C@H](NC(=O)CN2CCN(CC(=O)O)CCN(CC(=O)O)CCN(CC(=O)O)CC2)C(=O)NCCOCCOCCOCCOCCC(=O)N[C@@H](CCC(=O)NCCOCCOCCOCCOCCC(=O)NCCCC[C@@H]2NC(=O)[C@@H](Cc3ccccc3)NC(=O)[C@H](CC(=O)O)NC(=O)CNC(=O)[C@H](CCCNC(=N)N)NC2=O)C(=O)NCCOCCOCCOCCOCCC(=O)NCCCC[C@@H]2NC(=O)[C@@H](Cc3ccccc3)NC(=O)[C@H](CC(=O)O)NC(=O)CNC(=O)[C@H](CCCNC(=N)N)NC2=O)C(=O)NCCOCCOCCOCCOCCC(=O)NCCCC[C@@H]2NC(=O)[C@@H](Cc3ccccc3)NC(=O)[C@H](CC(=O)O)NC(=O)CNC(=O)[C@H](CCCNC(=N)N)NC2=O)NC(=O)[C@@H](Cc2ccccc2)NC(=O)[C@H](CC(=O)O)NC(=O)CNC1=O [indium-111 labelled],,,"female athymic nude mice, heart","intravenous, 3 µCi, 24 h, U-87 MG glioma xenograft",,tissue uptake,0.55 ± 0.06 %ID/g
Clc1ccc(CNC23CC4CC(CC(C4)C2)C3)s1,Matrix protein 2,"ion current, two-electrode voltage clamp",,100 µM,,inhibition,91%
Cc1nc(=O)c2cc(CN(C)c3ccc(C(=O)NCCc4nn[nH]n4)s3)ccc2[nH]1,4'-phosphopantetheinyl transferase PptT,"enzyme activity, inhibitor, fluorescence polarization",,,,Hill slope,1.2
CN(C)CC1CCCCC1(O)c1cccc(O)c1 (stereo not shown),human P-glycoprotein,,Caco-2 TC7 monolayer,"100 µM, 3 h, apical pH 6.8, basolateral pH 7.4, with: cyclosporine A 10 µM",,Papp B-to-A,206 ± 3 nm/s
